Measurements from different studies.
Numbered parts are unrelated; each lists some results of a single study.

Series 1
Target: Phosphate system positive regulatory protein PHO4, full length, GST-tagged (PHO4, Saccharomyces cerevisiae, UniProt P07270, residues 1-312)
Technique: competition protein-binding microarray
Molecule type: double-stranded DNA, one strand shown
Sample: in vitro
Concentration: 2 µM
Notes: whole 60-bp probe, lowest competitor level
Added: Cbf1 competitor, 0.05 µM
Direction: higher = stronger binding
Residues (chain): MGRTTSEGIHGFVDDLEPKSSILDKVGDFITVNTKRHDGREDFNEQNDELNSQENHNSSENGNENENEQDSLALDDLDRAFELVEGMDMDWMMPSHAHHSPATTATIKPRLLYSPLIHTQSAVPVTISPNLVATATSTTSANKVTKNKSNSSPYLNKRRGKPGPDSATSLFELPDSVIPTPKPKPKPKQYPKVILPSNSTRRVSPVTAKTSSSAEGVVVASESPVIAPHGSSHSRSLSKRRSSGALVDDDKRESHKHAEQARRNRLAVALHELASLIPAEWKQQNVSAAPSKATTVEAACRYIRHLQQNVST
`GATGGTATACGCCGTCACGTCTTTTACAATGAAGTGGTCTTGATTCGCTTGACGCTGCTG` gave a fluorescence intensity of 5680 a.u.
`GTTATAAAAGAATGTCCCGTGGTGAAAATGGATGAGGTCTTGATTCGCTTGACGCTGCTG` gave a fluorescence intensity of 8740 a.u.
The fluorescence intensity of `CGTCCTAGTGATTGTCACCCGACTTCCATGAGGAAGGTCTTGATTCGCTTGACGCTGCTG` is reported as 4390 a.u.
The fluorescence intensity of `CTTCTGTAAATTTGTCACATCACTTGACGCGCCCCGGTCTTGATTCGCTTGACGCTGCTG` is reported as 4000 a.u.
`GAGACCACATATTCACACGTGATGGATAGTCCCGTTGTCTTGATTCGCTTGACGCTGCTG` has a fluorescence intensity of 15300 a.u.
For `TTCCGTTATTGTTAGCGCGTGAAACTGCCATGTCGGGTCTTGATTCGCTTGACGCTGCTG`, the fluorescence intensity was 5520 a.u.
For `CTCCGGAAGAAAGAGCTCGTGGTGATACAATTTCTAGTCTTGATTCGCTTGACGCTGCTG`, the fluorescence intensity was 11200 a.u.
`AAAGCGGTAATTTGGCCAGTGGGTGCAGATATCTATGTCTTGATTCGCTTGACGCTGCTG` has a fluorescence intensity of 4040 a.u.
`CATACCCAACCTTTACACGTGTTTTAAGATATTTGTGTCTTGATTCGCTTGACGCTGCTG` gave a fluorescence intensity of 19900 a.u.
`CTTTATAAATCTCCACACGTTCCTGTTGGCGATGATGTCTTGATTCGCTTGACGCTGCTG` gave a fluorescence intensity of 15900 a.u.
With `CACAACAGAGTTCACCACGTGGTAACCTATTTCTACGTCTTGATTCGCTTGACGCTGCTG` the fluorescence intensity was 19000 a.u.
`TCCGAGGTTAGAGTGCCCGTGATGGACCTTTACGAAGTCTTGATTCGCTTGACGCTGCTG` gave a fluorescence intensity of 5970 a.u.
The fluorescence intensity of `AAAGCGGTAATTTGTCACTGGACTTCACATATCTATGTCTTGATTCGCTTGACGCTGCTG` is reported as 2710 a.u.
`GTCTTGTCTCATTGCAAGGTGGGTGTCCCCACTTCAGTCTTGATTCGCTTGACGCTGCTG` gave a fluorescence intensity of 4910 a.u.
For `TGGGTCCACTTGAAATGCGTGCCGATGAAACGCATTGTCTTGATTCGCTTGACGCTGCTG`, the fluorescence intensity was 9170 a.u.
For `TTGATCTTGCCAAGTCTCGTGGTGAACTATCCATTTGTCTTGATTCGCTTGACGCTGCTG`, the fluorescence intensity was 7720 a.u.
`AATGTCGACCTTTTGGACGTGGGTACATGGACGAGCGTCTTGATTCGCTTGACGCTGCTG` gave a fluorescence intensity of 5520 a.u.
`CCAAGGCAGCCTCACCACGGGCGGTCTTGTGGGAAAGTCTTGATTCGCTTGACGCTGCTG` has a fluorescence intensity of 6950 a.u.
With `TTCAACAGGATCATTAATGTGACGGTCGATCGAAGCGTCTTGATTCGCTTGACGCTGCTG` the fluorescence intensity was 3540 a.u.
`CTTTATGAGTACCGTCACGTTTCTTGTTGAAGATAAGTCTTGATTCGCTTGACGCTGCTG` has a fluorescence intensity of 12800 a.u.
For `CGTCCTAGTGATTGGTGTGTGGGTGCCATGAGGAAGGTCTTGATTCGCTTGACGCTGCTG`, the fluorescence intensity was 7330 a.u.
With `GTACTAATTACACTGCAAGTGTGCCTATTCTTCCTTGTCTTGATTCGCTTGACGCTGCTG` the fluorescence intensity was 6070 a.u.
For `CCTTTTCTTCTTGCGTACGTGCCGATCAATGCGTCGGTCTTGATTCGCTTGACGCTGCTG`, the fluorescence intensity was 6790 a.u.
`GGCTTGCAACTCCGTCACATGAGGTATGGGGGACATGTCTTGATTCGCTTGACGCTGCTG` gave a fluorescence intensity of 6920 a.u.
The fluorescence intensity of `TGCGCAACAACTTGCCTTGTGGGTGTATGTCTAGAAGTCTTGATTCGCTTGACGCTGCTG` is reported as 6180 a.u.

Series 2
Target: Hepatocyte nuclear factor 3-beta, forkhead domain (FOXA2, Homo sapiens, UniProt Q9Y261, residues 142-269)
Technique: protein-binding microarray
Molecule type: double-stranded DNA, one strand shown
Sample: in vitro
Concentration: not given
Notes: k-mer, scored over probes, only values ≥0.25
Direction: higher = stronger binding
Construct (chain): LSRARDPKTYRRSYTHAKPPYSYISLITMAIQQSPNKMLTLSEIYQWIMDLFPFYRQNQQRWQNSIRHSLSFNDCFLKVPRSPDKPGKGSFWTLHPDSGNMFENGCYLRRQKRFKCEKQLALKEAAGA
For `CCACATAC`, the E-score was 0.268.
The E-score of `CACAGTTA` is reported as 0.301.
For `ACAAACAA`, the E-score was 0.393.
`ATACAGCA` gave an E-score of 0.252.
For `AAAATATG`, the E-score was 0.26.
The E-score of `ATAAGTCA` is reported as 0.296.
For `ATATGTAG`, the E-score was 0.331.
`CAATATCG` gave an E-score of 0.281.
`CATAAAAA` gave an E-score of 0.261.
With `CTACCACA` the E-score was 0.253.
With `ATCATTAC` the E-score was 0.258.
The E-score of `AGTATACG` is reported as 0.279.
With `TGTGTTAA` the E-score was 0.307.
The E-score of `CGTAATCA` is reported as 0.312.
`GATCAACA` gave an E-score of 0.317.
`CAGTAATA` has an E-score of 0.34.
For `GGATAGTA`, the E-score was 0.276.
The E-score of `GCATATAA` is reported as 0.253.
`CATAATAC` gave an E-score of 0.326.
`AATCTATG` gave an E-score of 0.256.

Series 3
Target: RNA binding protein fox-1 homolog 2, RRM domain, GST-SBP tag (RBFOX2, Homo sapiens, UniProt O43251-10, residues 100-194)
Technique: RNA Bind-n-Seq
Molecule type: RNA
Sample: in vitro
Concentration: 365 nM
Notes: natural RNA segment, single round, ends assumed
Relative to: no-protein control
Direction: higher = stronger binding
Construct (chain): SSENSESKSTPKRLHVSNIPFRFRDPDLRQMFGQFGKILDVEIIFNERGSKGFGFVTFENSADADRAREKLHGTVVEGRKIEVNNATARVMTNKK
For `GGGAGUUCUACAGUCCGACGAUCCUGCCCUGUGAGGUGUGGGAGCCCUGAUGCUGCCGUGUGAUGUUUCAAUAAAGGUGGAUCUCACUGUGGACGUGUCUCCCGGGCCGAGGUCCCUGUGGCAAAGAAACACUUGGAAUUCUCGGGUGCCAA`, “RBNS enrichment (R)” read 0.306.
Under “RBNS enrichment (R)”, `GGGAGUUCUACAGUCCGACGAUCACUGCCAAAAAGCUUCCUCUGAUGUCAAAUCAGGAUGUAUUACCGAAACUGAUUCCAAGGACAUCCACAUAGCUGAGCCAAGAUGCUCCAGGCCAGUGGCAGGUGGACUGUGGAAUUCUCGGGUGCCAA` is recorded as 0.516.
`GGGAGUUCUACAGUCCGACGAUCUGCACACAGUGGAGCUUCGGGGGAACCAGCUGGAAAGCACCCUGGGAAUCAAUCUUCCUAAGCUGAAGAACCUCUACCUGGAGAUCAAAGACGCUGGCCUUCAGACCUGAUGGAAUUCUCGGGUGCCAA`: “RBNS enrichment (R)” 0.37.
Under “RBNS enrichment (R)”, `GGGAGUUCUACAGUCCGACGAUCAGGAACAGAGCGCGAACGGCUUCUAAAUUUCUAGCCCUCUCGCAGGGCAUCCUGACUGAACUGUGUCUAAGGGUCGGUCGGUUUACCACUGGACGGGUGCUGCAUCGGCAUGGAAUUCUCGGGUGCCAA` is recorded as 0.414.
`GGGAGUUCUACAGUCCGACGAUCCUCAGGAUUGUAUUUAUUUUGCUUACCCCGUGCUCUUGGGUUCUAUAGUAUUUCUAUAAUUAUGUAACGAGAAUAGUGUUGCACUGUAAUCUAUCAUAUAGAGCUAUAUGUGGAAUUCUCGGGUGCCAA` — result for “RBNS enrichment (R)”: 0.279.
For `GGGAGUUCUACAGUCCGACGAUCGGCUUUAAGGUAGCAUGGCUCGAUUGCUGUCGACUUAAUGUUCCACUGCACAGCAAUUCACGGCCAGUGAAUGUUACACACAUCUUGCUAGACUAGUAUAAAAAUCAUUGUGGAAUUCUCGGGUGCCAA`, “RBNS enrichment (R)” read 0.666.
Under “RBNS enrichment (R)”, `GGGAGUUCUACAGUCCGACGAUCACCGUUCAGGCCACGCAAUAUGAGAAUGCAGUUUUUGUAGGAUUACAAAAAAAAAAAAAAGCCAUUAAUCUGCCAGUCAAGACUACAGUUAAAAUCCCCUUCGCACUGCAUGGAAUUCUCGGGUGCCAA` is recorded as 2.76.
`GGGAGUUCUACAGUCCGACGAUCAACAAACCCUGAAAUGUAUAUUUGGGAUUAUGAUAAGGCAACUAAAGACAUGAAACCUCAGGUAUCCUGCUUUAAGUUGAUAACUCCCUCUGGGAGCUGGAGAAUCGCUCUGGAAUUCUCGGGUGCCAA` — result for “RBNS enrichment (R)”: 0.204.
Under “RBNS enrichment (R)”, `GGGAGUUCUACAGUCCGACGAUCUUUUAACCUUUGCACCUUCUCAGUGCUGUAUGCGGCUGCAGCCGUCUCACCUGUUUCCCCACAAAGGGAAUUUCUCACUCUGGUUGGAAGCACAAACACUGAAAUGUCUAUGGAAUUCUCGGGUGCCAA` is recorded as 0.34.

Series 4
Target: Histone acetyltransferase KAT6A, both winged helices, GST fusion (KAT6A, Homo sapiens, UniProt Q92794, residues 1-181)
Technique: protein binding microarray
Molecule type: double-stranded DNA, one strand shown
Sample: in vitro
Concentration: not given
Notes: 8-mer, flanks averaged, mean of 2 arrays, mostly near background
Relative to: not given
Direction: higher = stronger binding
Residues (chain): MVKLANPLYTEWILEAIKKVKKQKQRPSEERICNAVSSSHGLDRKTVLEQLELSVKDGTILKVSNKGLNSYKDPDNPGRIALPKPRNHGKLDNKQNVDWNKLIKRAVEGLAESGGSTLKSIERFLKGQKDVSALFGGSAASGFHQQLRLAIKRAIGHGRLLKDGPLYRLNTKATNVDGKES
With `CTAACAGA` the E-score was -0.16.
`AACTGGGG` gave an E-score of -0.259.
With `TTACCAAA` the E-score was -0.0723.
For `AACTTATA`, the E-score was -0.0498.
The E-score of `GGTACAAA` is reported as -0.069.
`ATTAACTC` has an E-score of -0.0851.
With `GGACTTTA` the E-score was -0.0288.
`AATAACCT` gave an E-score of -0.183.
The E-score of `AACTAACT` is reported as -0.0571.
For `GACGCGGA`, the E-score was 0.233.
With `CACCCAAC` the E-score was -0.0757.
With `ATACTCCG` the E-score was 0.149.
With `ACTGTGAA` the E-score was -0.0682.
The E-score of `ACTTACGG` is reported as 0.2.
`CCGAATAG` has an E-score of -0.0101.
For `CATATCAG`, the E-score was 0.0088.
The E-score of `CACTGCGG` is reported as 0.0981.
With `GTTTTTTA` the E-score was -0.112.
For `AAGATTGC`, the E-score was -0.0355.
The E-score of `AGTCCACC` is reported as -0.189.
For `CTACGAAA`, the E-score was -0.0993.
`ATCGTGAC` has an E-score of 0.0384.
With `CTGGATAC` the E-score was -0.0688.
The E-score of `CGCGCTAG` is reported as 0.349.

For quick reference, copied from above (series 2):
The E-score of `ATAAGTCA` is reported as 0.296.
For `ATATGTAG`, the E-score was 0.331.
`CAATATCG` gave an E-score of 0.281.
`CATAAAAA` gave an E-score of 0.261.
With `CTACCACA` the E-score was 0.253.
With `ATCATTAC` the E-score was 0.258.
